Assay results gathered from unrelated publications.
A part holds a random share of what one study measured. Several values in a cell are separate wells, animals, samples, runs or records.
UniProt Q99640, sequence (whole entry, looked up): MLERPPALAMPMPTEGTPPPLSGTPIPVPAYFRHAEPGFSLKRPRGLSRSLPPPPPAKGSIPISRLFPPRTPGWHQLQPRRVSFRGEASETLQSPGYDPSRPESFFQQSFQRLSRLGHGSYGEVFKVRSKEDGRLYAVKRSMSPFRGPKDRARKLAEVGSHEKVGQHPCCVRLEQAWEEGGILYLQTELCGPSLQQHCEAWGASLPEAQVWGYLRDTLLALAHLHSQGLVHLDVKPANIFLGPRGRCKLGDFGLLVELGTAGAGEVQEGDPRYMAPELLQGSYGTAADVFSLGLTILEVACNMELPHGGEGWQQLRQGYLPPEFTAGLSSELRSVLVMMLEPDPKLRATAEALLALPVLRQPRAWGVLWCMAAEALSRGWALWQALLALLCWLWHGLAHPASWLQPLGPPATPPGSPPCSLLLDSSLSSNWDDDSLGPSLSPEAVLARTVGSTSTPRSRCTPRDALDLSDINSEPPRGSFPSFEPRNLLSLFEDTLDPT

Series 1
Structure (SMILES): C[C@@H]1CN(c2ccc(-c3cc(C(=O)NCCOCCOCCOCCOCCNC(=O)/C=C/c4[nH]cc(C(=O)N[C@@H](CC(N)=O)c5ccc(F)c(Cl)c5)c4-c4ccc(Cl)cc4F)ccc3F)cc2NC(=O)c2c[nH]c(=O)cc2C(F)(F)F)C[C@H](C)N1C
Effect on: thermal unfolding
Method: differential scanning fluorimetry
Concentration: 5.5 µM
Direction: higher = more unfolded
DCAF1: DDB1- and CUL4-associated factor 1 (DCAF1, Homo sapiens, UniProt Q9Y4B6)
UniProt Q9Y4B6, sequence (whole entry, looked up): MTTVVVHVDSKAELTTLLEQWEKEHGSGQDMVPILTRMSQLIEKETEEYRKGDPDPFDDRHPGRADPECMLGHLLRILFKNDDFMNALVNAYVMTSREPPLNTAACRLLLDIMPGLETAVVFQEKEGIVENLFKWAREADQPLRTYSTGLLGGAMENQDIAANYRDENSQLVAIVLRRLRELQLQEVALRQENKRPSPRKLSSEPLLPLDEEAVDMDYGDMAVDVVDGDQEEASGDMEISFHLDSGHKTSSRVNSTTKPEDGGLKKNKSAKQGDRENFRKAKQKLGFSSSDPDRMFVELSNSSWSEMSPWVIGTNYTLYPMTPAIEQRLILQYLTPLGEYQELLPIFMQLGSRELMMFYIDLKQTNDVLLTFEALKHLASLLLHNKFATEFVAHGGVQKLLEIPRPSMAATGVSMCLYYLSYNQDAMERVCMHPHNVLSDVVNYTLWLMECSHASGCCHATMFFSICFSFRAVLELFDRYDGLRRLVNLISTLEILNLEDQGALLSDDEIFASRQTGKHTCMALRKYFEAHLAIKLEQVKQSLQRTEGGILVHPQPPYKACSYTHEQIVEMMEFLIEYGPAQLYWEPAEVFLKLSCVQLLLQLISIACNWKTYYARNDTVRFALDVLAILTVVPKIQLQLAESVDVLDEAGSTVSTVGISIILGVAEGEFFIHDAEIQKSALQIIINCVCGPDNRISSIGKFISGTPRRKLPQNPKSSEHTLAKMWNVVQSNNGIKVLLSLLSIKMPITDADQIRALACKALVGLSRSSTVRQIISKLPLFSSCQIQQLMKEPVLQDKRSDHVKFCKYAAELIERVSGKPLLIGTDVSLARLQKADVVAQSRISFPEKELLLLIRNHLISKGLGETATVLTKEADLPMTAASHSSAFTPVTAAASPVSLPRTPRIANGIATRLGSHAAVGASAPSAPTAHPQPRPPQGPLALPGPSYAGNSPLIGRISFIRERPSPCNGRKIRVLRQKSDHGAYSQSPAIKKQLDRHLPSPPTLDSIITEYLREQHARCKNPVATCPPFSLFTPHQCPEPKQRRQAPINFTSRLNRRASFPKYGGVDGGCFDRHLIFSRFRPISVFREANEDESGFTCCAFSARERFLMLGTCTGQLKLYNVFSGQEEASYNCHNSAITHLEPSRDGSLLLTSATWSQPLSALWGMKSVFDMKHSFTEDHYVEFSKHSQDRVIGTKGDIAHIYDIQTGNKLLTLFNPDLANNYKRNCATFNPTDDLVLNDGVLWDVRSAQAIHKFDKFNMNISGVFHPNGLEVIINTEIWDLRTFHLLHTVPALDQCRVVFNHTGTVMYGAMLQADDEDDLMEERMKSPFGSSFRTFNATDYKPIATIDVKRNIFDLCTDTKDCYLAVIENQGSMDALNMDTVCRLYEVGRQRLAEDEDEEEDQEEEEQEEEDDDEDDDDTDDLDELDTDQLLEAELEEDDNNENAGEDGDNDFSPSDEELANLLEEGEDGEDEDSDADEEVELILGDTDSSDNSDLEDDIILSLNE
WDR5: WD repeat-containing protein 5 (WDR5, Homo sapiens, UniProt P61964)
The “SYPRO Orange fluorescence” was 17700 a.u. (DCAF1; 52.81 °C).
The “SYPRO Orange fluorescence” was 20500 a.u. (WDR5; 72.61 °C).
It gave 53200 a.u. for “SYPRO Orange fluorescence” (DCAF1; 62.81 °C).
For DCAF1; 38.2 °C: “SYPRO Orange fluorescence” read 11000 a.u.
The “SYPRO Orange fluorescence” was 53600 a.u. (WDR5; 87.21 °C).
It gave 9500 a.u. for “SYPRO Orange fluorescence” (DCAF1; 30 °C).
DCAF1; 71.81 °C — “SYPRO Orange fluorescence”: 53500 a.u.
The “SYPRO Orange fluorescence” was 13700 a.u. (DCAF1; 46.6 °C).

Series 2
Organism: Arabidopsis thaliana
Strain: Col-0
Concentration: 3.125 µg/mL
Setting: seed germination, single repetition
For COc1ccc2c(c1)OC(O)(C(=O)O)C(=O)N2Cc1ccccc1 (stereo not drawn), the hypocotyl length was 1.88 cm and 2.01 cm and 2.03 cm and 1.99 cm and 1.9 cm.
With CN1C(=O)C(O)(C(=O)O)Oc2cc(F)ccc21 (stereo not drawn) the hypocotyl length was 2.22 cm and 1.96 cm and 2.21 cm and 2.3 cm and 2.25 cm.
For CCN1C(=O)C(O)(C(=O)O)Oc2cc(F)ccc21 (stereo not drawn), the hypocotyl length was 2.12 cm and 2.22 cm and 2.33 cm and 2.24 cm.
The hypocotyl length of O=C(O)C1(O)Oc2cc(Cl)ccc2N(Cc2ccccc2)C1=O (stereo not drawn) is reported as 2.07 cm and 2.12 cm and 2.08 cm.
The hypocotyl length of O=C(O)C1Oc2cc(F)ccc2N(Cc2ccccc2)C1=O (stereo not drawn) is reported as 2.31 cm and 2.29 cm and 2.34 cm and 2.33 cm and 2.3 cm.

Other studies, line by line
For Cc1ccc(O)c(C)c1-c1cnc2[nH]c(-c3cnc(N4CCC5(CC4)CC(N4CCN(c6ccc7c(c6F)CN(C6CCC(=O)NC6=O)C7=O)CC4)CO5)nc3)cc2c1C#N (mixture of isomers), “pCDK1 (Thr14) level” read 13.4 RLU and 7.04 RLU (HCC1569; in-cell western, item: CDK1 phospho-Thr14; 1.37 nM).
CCN1CCN(Cc2ccc(COc3c(-c4c(C)c(F)cc5[nH]ncc45)c(C4CC4)cc4c(N5C[C@@H]6C[C@H]5CN6)nc(OC5CCOCC5)nc34)cc2)C(=O)C1 gave a viability of 38.9% and 38.3% and 38.6% and 34.6% (AsPC-1 (KRAS G12D); CellTiter-Glo; 300 nM).
With Cc1ccc(O)c(C)c1-c1cnc2[nH]c(-c3cnc(N4CCC(CN5CCN(c6cc7c(cc6F)n(C6CCC(=O)NC6=O)c(=O)n7C)CC5)CC4)nc3)cc2c1C#N (stereo not drawn) the oral bioavailability was 30.4% (CD-1 mouse, female, plasma; oral, 20 mg/kg).
With Cc1ncsc1-c1ccc(C2(NC(=O)C3CC(O)CN3C(=O)C(NC(=O)c3ccc(COc4c(-c5c(C)c(F)cc6[nH]ncc56)c(C5CC5)cc5c(N6CC7CC6CN7)nc(OC6CCOCC6)nc45)cc3)C(C)C)CC2)cc1 (stereo not drawn) the phospho-ERK1/2 level was 5.05% and 7.54% and 7.9% and 9.06% and 8.93% and 5.36% (AsPC-1; in-cell ELISA; 3 µM, individual replicates).
Cc1ccc(O)c(C)c1-c1cnc2[nH]c(-c3cnc(N4CCC(CN5CCN(c6ccc7c(c6)C(=O)N(C6CCC(=O)NC6=O)C7=O)CC5)CC4)nc3)cc2c1C#N (stereo not drawn) has a Cmax of 360 ng/mL (CD-1 mouse, female, fasted, plasma; oral, 10 mg/kg).
With Cc1ncsc1-c1ccc(C(CO)NC(=O)C2CC(O)CN2C(=O)C(NC(=O)c2ccc(COc3c(-c4c(C)c(F)cc5[nH]ncc45)c(C4CC4)cc4c(N5CC6CC5CN6)nc(OC5CCOCC5)nc34)cc2)C(C)C)cc1 (stereo not drawn) the viability was 5.55% and 8.55% and 7.49% (AsPC-1; CellTiter-Glo; 1 µM, 6 days).
For Cc1ccc(O)c(C)c1-c1cnc2[nH]c(-c3cnc(N4CCC(CCN5CCN(c6ccc(N7CCC(=O)NC7=O)cc6F)CC5)CC4)nc3)cc2c1C#N, the inhibition was 9.61% and 1.74% (PKMYT1 (Homo sapiens, UniProt Q99640); binding, HTRF; 0.46 nM).
Cc1ncsc1-c1ccc(C(CO)NC(=O)C2CC(O)CN2C(=O)C(C(C)C)n2cc(-c3ccc(COc4c(-c5c(C)c(F)cc6[nH]ncc56)c(C5CC5)cc5c(N6CC7CC6CN7)nc(OC6CCOCC6)nc45)cc3)nn2)cc1 (stereo not drawn) has a plasma concentration of 2.06 ng/mL (mouse PK-59 xenograft, plasma; intravenous, 10 mg/kg, 72 h).

Excerpt of the above (series 1):
It gave 9500 a.u. for “SYPRO Orange fluorescence” (DCAF1; 30 °C).
DCAF1; 71.81 °C — “SYPRO Orange fluorescence”: 53500 a.u.
